Measurements from different studies.
Several values in a cell are separate wells, animals, samples, runs or records. ± gives the spread as reported. ≈ marks a conversion by molar mass, not a printed value.

SMILES = C=CC(=O)Nc1cc(Nc2ncc(Cl)c(Nc3ccccc3C(=O)C(=O)N(C)C)n2)c(OC)cc1N1CCN(C)CC1; test = RECIST v1.1 best response; test system = human EGFR T790M NSCLC; setting = oral, 200 mg/day, per-protocol set; measurement = patients with progressive disease; value = 50%
SMILES = N=C(N)NCCC[C@H](NC(=O)CCCCCNC(=O)[C@H](CCCNC(=N)N)NC(=O)[C@H](CCCNC(=N)N)NC(=O)CCCCCNC(=O)[C@H](CCCNC(=N)N)NC(=O)[C@H](CCCNC(=N)N)NC(=O)CCCCCNC(=O)[C@H](CCCNC(=N)N)NC(=O)[C@H](CCCNC(=N)N)NC(=O)CCCCCNC(=O)[C@@H](N)CCCNC(=N)N)C(=O)NCCCCCC(=O)NCCC(=O)O; test = broth microdilution; test system = 29213, Mueller-Hinton broth; setting = 16 to 18 h, 37 °C; measurement = MIC; value = 96 µM (≈ 183 µg/mL)
SMILES = C=CCNc1c(O)cc2c(O)c1C[C@@H](C)C[C@H](OC)[C@H](O)[C@@H](C)/C=C(\C)[C@H](OC(N)=O)[C@@H](OC)/C=C\C=C(/C)C(=O)N2; test system = patients with STS, GIST or other tumours; setting = dose not given; measurement = median time to tumour progression; value = 10.6 weeks
SMILES = C[C@]1(CO)Cc2ncn(-c3ccc(C#N)c(Cl)c3)c2C(=O)O1; test system = human; setting = 5 mg single dose; measurement = urinary sodium excretion Ae(0-24h); value = 224 mmol
SMILES = COc1cc(N2CC[C@@]3(O)C(=O)c4cc(C)c(C)cc4N=C23)ccn1; test = methamphetamine place preference; test system = mouse; setting = intraperitoneal; measurement = lowest effective dose; value = 0.5 mg/kg
SMILES = CNCC[C@@H](Oc1ccccc1C)c1ccccc1; tested on = Plasmodium falciparum; test system = GB4; measurement = IC50; value = 1580 nM
SMILES = Oc1cc(Br)cc(Br)c1Oc1ccc(Br)cc1Br; test = sulfonation; test system = human liver cytosol; measurement = Vmax/Km; value = 41.2 ± 15.5 µL/min/mg
SMILES = C[C@]12CC[C@H](O)C[C@H]1CC[C@@H]1[C@@H]2CC[C@]2(C)[C@@H](c3ccc(=O)oc3)CC[C@]12O; test system = female nude mouse LCC2 xenograft; setting = 0.5 mg/kg, day 11, tamoxifen-resistant; measurement = tumour volume; value = 59.3 mm3 and 54.1 mm3 and 63.2 mm3 and 73.2 mm3 and 67.6 mm3 and 67.4 mm3
SMILES = CC(C)C[C@H](NC(=O)[C@H](CCC1CCCCC1)NC(=O)[C@@H]1CCCN1C(=O)c1ccc(F)cc1)C(=O)NC(C)(C)C(=O)N[C@@H](CC(C)C)C(=O)N[C@@H](CC(C)C)C(=O)NC(C)(C)C(=O)NC(C)(C)C(=O)NCCC(=O)NC1(CN(C)C)CCC1; test = HPTS release from GUVs; test system = PC/PG 7:3 GUVs; setting = 1 µM, complete leakage fraction; measurement = leakage; value = > 50% and ~50%
SMILES = CC[C@H](C)[C@@H]1NC(=O)[C@@H]2CCCN2C(=O)[C@H](CC(C)C)NC(=O)[C@H](CC(C)C)NC(=O)CNC(=O)[C@@H](NC(=O)[C@@H](NC(=O)[C@H](CC(=O)O)NC(=O)CNC(=O)[C@@H](NC(=O)[C@H](C)NC(=O)CNC(=O)[C@H](CCCCN)NC(=O)[C@H](CC(C)C)NC(=O)[C@H](CC(C)C)NC(=O)[C@H](CCCCN)NC(=O)CNC(=O)[C@@H](NC(=O)[C@@H](N)CC(C)C)C(C)C)C(C)C)C(C)C)CSSC[C@@H](C(=O)O)NC1=O; test = RNA-seq, item: Klf2; test system = mouse, traumatic brain injury model, frontal cortex and hippocampus; setting = dose not given; how to read = baseline: TBI alone; measurement = log2 fold change; value = -1.47
SMILES = CC[C@H](C)[C@@H]1NC(=O)[C@H](CCCNC(=N)N)NC(=O)C[C@@H](c2cccc3ccccc23)NC(=O)[C@@H]2CSSC[C@H](NC(=O)C[C@@H](c3cccc4ccccc34)NC(=O)[C@H](CCCNC(=N)N)NC(=O)[C@@H]3CCCN3C(=O)[C@@H]3CCCN3C1=O)C(=O)N[C@@H](Cc1ccccc1)C(=O)N1CCC[C@H]1C(=O)N[C@@H](CC(=O)O)C(=O)N[C@@H](CC(=O)O)C(=O)N[C@@H](Cc1ccccc1)C(=O)N2; test = immunohistochemistry; test system = Calu-3 NSCLC xenograft, athymic Foxn1 nude mouse; setting = oral, 50 mg/kg; how to read = baseline: vehicle; measurement = EGFR expression; value = decreased
SMILES = OC(c1cc(C(F)(F)F)nc2c(C(F)(F)F)cccc12)C1CCCCN1 (stereo not drawn); tested on = Plasmodium falciparum; test = cell growth; test system = D10; measurement = IC50; value = 69 nM

Excerpt of the above:
SMILES = N=C(N)NCCC[C@H](NC(=O)CCCCCNC(=O)[C@H](CCCNC(=N)N)NC(=O)[C@H](CCCNC(=N)N)NC(=O)CCCCCNC(=O)[C@H](CCCNC(=N)N)NC(=O)[C@H](CCCNC(=N)N)NC(=O)CCCCCNC(=O)[C@H](CCCNC(=N)N)NC(=O)[C@H](CCCNC(=N)N)NC(=O)CCCCCNC(=O)[C@@H](N)CCCNC(=N)N)C(=O)NCCCCCC(=O)NCCC(=O)O; test = broth microdilution; test system = 29213, Mueller-Hinton broth; setting = 16 to 18 h, 37 °C; measurement = MIC; value = 96 µM (≈ 183 µg/mL)
SMILES = CC[C@H](C)[C@@H]1NC(=O)[C@@H]2CCCN2C(=O)[C@H](CC(C)C)NC(=O)[C@H](CC(C)C)NC(=O)CNC(=O)[C@@H](NC(=O)[C@@H](NC(=O)[C@H](CC(=O)O)NC(=O)CNC(=O)[C@@H](NC(=O)[C@H](C)NC(=O)CNC(=O)[C@H](CCCCN)NC(=O)[C@H](CC(C)C)NC(=O)[C@H](CC(C)C)NC(=O)[C@H](CCCCN)NC(=O)CNC(=O)[C@@H](NC(=O)[C@@H](N)CC(C)C)C(C)C)C(C)C)C(C)C)CSSC[C@@H](C(=O)O)NC1=O; test = RNA-seq, item: Klf2; test system = mouse, traumatic brain injury model, frontal cortex and hippocampus; setting = dose not given; how to read = baseline: TBI alone; measurement = log2 fold change; value = -1.47
